Experimental data of several laboratories.
Compare with care: the assays were run in different laboratories. Values joined by “and” are separate records of one study, mostly repeats; a detail may differ. ± marks the error that the study gave. Non-standard residues stand in square brackets, D forms with d.
B1: UGT1A9 (Homo sapiens, UniProt O60656); chain GKLLVVPMDGSHWFTMRSVVEKLILRGHEVVVVMPEVSWQLGRSLNCTVKTYSTSYTLEDLDREFKAFAHAQWKAQVRSIYSLLMGSYNDIFDLFFSNCRSLFKDKKLVEYLKESSFDAVFLDPFDNCGLIVAKYFSLPSVVFARGILCHYLEEGAQCPAPLSYVPRILLGFSDAMTFKERVRNHIMHLEEHLLCHRFFKNALEIASEILQTPVTEYDLYSHTSIWLLRTDFVLDYPKPVMPNMIFIGGINCHQGKPLPMEFEAYINASGEHGIVVFSLGSMVSEIPEKKAMAIADALGKIPQTVLWRYTGTRPSNLANNTILVKWLPQNDLLGHPMTRAFITHAGSHGVYESICNGVPMVMMPLFGDQMDNAKRMETKGAGVTLNVLEMTSEDLENALKAVINDKSYKENIMRLSSLHKDRPVEPLDLAVFWVEFVMRHKGAPHLRPAAHDLTWYQYHSLDVIGFLLAVVLTVAFITFKCCAYGYRKCLGKKGRVKKAHKSKTH

CN(C)CC[C@@H]1NC(=O)c2coc(n2)-c2coc(n2)-c2cccc(c2)-c2cccc(c2)-c2nc(co2)-c2nc(co2)CNC1=O
melting temperature shift (human telomeric quadruplex d(TTAGGG)4; UV melting; 20 µM, pH 7.5, together with: 50 mM K+; reference: DNA without compound): 8.4 °C

O=C(/C=C/c1ccc(-n2ccnc2)cc1)N1CCN(C(=O)c2ccco2)CC1
thermal stabilization (ENL YEATS domain; HiBiT CETSA; OCI-AML2; 80 µM; reference: SGC-iMLLT 40 µM): ≥ 24%

O=C(O)C(=O)O
peptide depletion (cysteine peptide Ac-RFAACAA-COOH; DPRA RapidFire-MS/MS; 24 h, pH 7.5, together with: 5.0 µM cysteine peptide): inactive

CC(=O)[C@H]1CC[C@H]2[C@@H]3CCC4=CC(=O)CC[C@]4(C)[C@H]3CC[C@]12C
Kd (membrane progesterone receptors α and β; binding, saturation radioligand binding; MDA-MB-468, plasma membranes; 30 min, pH 7.6, 4 °C): 0.00603 µM

COCCOC(=O)C1=C(C)NC(C)=C(C(=O)OC(C)C)C1c1cccc([N+](=O)[O-])c1 (stereo not shown)
Kd (T-type calcium channel, guinea pig; calcium current, blocker, whole-cell patch clamp; guinea pig atrial myocytes): 0.1 µM

CC(CC=O)CCCC(C)(C)O (stereo not shown)
peptide depletion (cysteine peptide Ac-RFAACAA-COOH; DPRA RapidFire-MS/MS; 24 h, pH 7.5, together with: 5.0 µM cysteine peptide): inactive

CN1CCN(CCCN2c3ccccc3Sc3ccc(C(F)(F)F)cc32)CC1
current density (anoctamin-1 rat; Ca2+-activated Cl- current; HEK293 transfected; 20 µM, 10 to 70 min, -70 mV): 277 ± 52 pA/pF

IINFEKL
K1/2 of L-AMC (ERAP1 human wild type; activator; peptide; 100 µM, pH 8.0, 27 °C, together with: L-AMC substrate): 0.19 mM and ~0.19 mM

Nc1nc2c(ncn2[C@@H]2O[C@@H]3COP(=O)(O)O[C@H]3[C@H]2O)c(=O)[nH]1
EC50 (cone cGMP-gated channel (Morone saxatilis); ion current, agonist, inside-out patch clamp; after EDTA/EGTA exposure, -40 mV): 58.8 µM

CC(=O)N[C@@H](CC(N)=O)C(=O)NCC(=O)N[C@@H](CCCCN)C(=O)N[C@@H](C)C(N)=O
rate constant k1 (Asn-Gly peptide isomerisation to succinimide; 1H NMR time course; pH 7.4, 28 °C): 0.009 h⁻¹

CC(C)(C)c1cc(C(C)(C)C)c(NC(=O)c2c[nH]c3ccccc3c2=O)cc1O
CFTR activity (CFTR G1244E human; short-circuit current, potentiator; CFBE; 14.44 µM, together with: forskolin 20 µM; reference: PKA-activated wild type): 25.1 ± 6%

Cc1ccc(OCC(=O)N(Cc2nc(-c3ccc(C)cc3)no2)C(C)C)cc1
activity recovered (rabbit 20S proteasome chymotrypsin-like; dialysis; 10 µM, 20 min dialysis, 30 min preincubation): > 70%

IINFEKE
Vmax of L-AMC hydrolysis (ERAP1 human wild type; activator; peptide; 100 µM, pH 8.0, 27 °C, together with: L-AMC substrate): 169 ± 6 nmol/min/µg

CN(C)CCCN
peptide depletion (cysteine peptide Ac-RFAACAA-COOH; DPRA RapidFire-MS/MS; 24 h, pH 7.5, together with: 5.0 µM cysteine peptide): inactive

B1 (UGT1A9)
Vmax (O=c1cc(-c2ccccc2)oc2cc(O)c(O)cc12; steady-state kinetics; pH 7.4, 37 °C): 0.00409 µmol/min/mg

C[N+](C)(C)CCOC(N)=O
GDP dissociation rate increase (G proteins; GDP-free CHO-M2 membranes; 10 and 100 µM, faster fraction; reference: control): > 100 fold

Nc1ncnc2c1ncn2[C@@H]1O[C@H](COP(=O)(O)OP(=O)(O)OP(=O)(O)O)[C@@H](O)[C@H]1O
Km (TsaB TsaC TsaD TsaE, Escherichia coli; substrate; 23 °C, together with: L-threonine 50 mM, tRNALys 10 µM): 60 ± 6 µM

Sc1nc2ccccc2s1
maximal peptide depletion (cysteine peptide Ac-RFAACAA-COOH; DPRA RapidFire-MS/MS; 24 h, pH 7.5, together with: 5.0 µM cysteine peptide): -97.3%

CC[C@H](C)[C@H](NC(=O)[C@H](CC(=O)O)NC(=O)[C@H](CCCCN)NC(=O)[C@H](CCC(=O)O)NC(=O)[C@H](CCC(=O)O)NC(=O)[C@H](CCCCN)NC(C)=O)C(=O)N[C@@H](CC(N)=O)C(=O)N[C@@H](CC(N)=O)C(=O)N[C@@H](CC(N)=O)C(=O)N[C@H](C(=O)N[C@@H](CCCCN)C(=O)N[C@@H](CCCCN)C(=O)N[C@H](C(N)=O)[C@@H](C)O)C(C)C
polyubiquitination (iNOS, mouse; SPSB2-elongin BC-dependent ubiquitination, inhibitor, Western blot; Spsb2-/- macrophage lysate; concentration not given, 10 and 40 min, 37 °C): inhibited

O=C(O)c1ccc2c(c1)C(=O)OC2=O
peptide depletion (cysteine peptide Ac-RFAACAA-COOH; DPRA RapidFire-MS/MS; 24 h, pH 7.5, together with: 5.0 µM cysteine peptide): inactive

CC(C)(C)OC(=O)NCC[C@@H]1NC(=O)c2coc(n2)-c2coc(n2)-c2cccc(c2)-c2cccc(c2)-c2nc(co2)-c2nc(co2)CNC1=O
melting temperature shift (human telomeric quadruplex d(TTAGGG)4; UV melting; 20 µM, pH 7.5, together with: 50 mM K+; reference: DNA without compound): 2.4 °C

RAFPNAPYL
complex half-life (HLA-A2 (human); peptide-MHC dissociation, flow cytometry; peptide; 37 °C): 1.2 h

COc1ccc(C(C)=O)cc1
peptide depletion (cysteine peptide Ac-RFAACAA-COOH; DPRA RapidFire-MS/MS; 24 h, pH 7.5, together with: 5.0 µM cysteine peptide): inactive

CC(=O)N[C@@H](CC(=O)O)C(=O)N[C@@H](CC(C)C)C(=O)N[C@@H](Cc1c[nH]c2ccccc12)C(=O)N[C@@H](CCCCN)C(=O)N[C@@H](CC(C)C)C(=O)NCCCOCCOCCOCCCNC(=O)CCCCCCCCCCS
adhesion pull-off force (anti-p53 antibody; binding, AFM force spectroscopy; first monolayer): 1.7e-10 ± 1.3e-11 N

CC(C)[C@@H]1NC(=O)c2coc(n2)-c2coc(n2)-c2cccc(c2)-c2cccc(c2)-c2nc(co2)-c2nc(co2)CNC1=O
melting temperature shift (human telomeric quadruplex d(TTAGGG)4; UV melting; 20 µM, pH 7.5, together with: 50 mM K+; reference: DNA without compound): 6.4 °C

AAPSPLFVPGPLPQL
concentration for maximal response (GPR15 Coturnix japonica; intracellular calcium, agonist, Fluo-4 fluorescence; peptide, CHO transfected with GPR15): 10 nM

Nc1nc2c(ncn2[C@@H]2O[C@H](COP(=O)(O)OP(=O)(O)OP(=O)(O)O)[C@@H](O)[C@H]2O)c(=O)[nH]1
Kd (volume-regulated anion channel; 0 mV, together with: total nucleotide 1 mM): 600 ± 300 µM

OO
remaining activity (bovine lens protease; 0.5 mM, 37 °C): 48%

O=c1c(O[C@@H]2O[C@H](CO)[C@@H](O)[C@H](O)[C@H]2O)c(-c2ccc(O)c(O)c2)oc2cc(O)cc(O)c12
protein level decrease (Mrp2 (rat); western blot, item: MRP2; rats, liver; intravenous, 5 mg/kg, 7 days; reference: vehicle control): 26.1%

Nc1nc2[nH]c(Cc3ccc(C(=O)N[C@@H](CCC(=O)O)C(=O)O)cc3)cc2c(=O)[nH]1
relative binding affinity (folate receptor beta, human; D4 cells; concentration not given, 15 min, 0 °C, together with: [3H]folic acid 50 nM; reference: folic acid, higher = stronger binding): < 0.01

COC(=O)c1cccc(C(=O)OC)c1
peptide depletion (cysteine peptide Ac-RFAACAA-COOH; DPRA RapidFire-MS/MS; 24 h, pH 7.5, together with: 5.0 µM cysteine peptide): inactive

CCCCCCCC/C=C\CCCCCCCC(=O)OCC(COC(=O)CCCCCCC/C=C\CCCCCCCC)OC(=O)CCCCCCC/C=C\CCCCCCCC
LPS-enhanced brain uptake of I-Aβ (amyloid beta peptide; brain/serum ratio; male CD-1 mouse; intravenous, 7.2 mg, 10 min, together with: radioiodinated Aβ co-injected, LPS-treated mice): inhibited

WHWLPNLRHYAS
affinity constant (VEGFR-3 (human); binding, ELISA; peptide): 175 ± 31.1 µg/mL

O=C1Nc2ccc(Cl)cc2[C@@](C#CC2CC2)(C(F)(F)F)O1
EC50 (GABAA receptor α2β2γ2; current potentiation, positive allosteric modulator, whole-cell patch clamp; together with: GABA EC30): 8.4 ± 4.9 µM

O=C1N[C@@H](Cc2ccccc2)C(=O)NCc2coc(n2)-c2coc(n2)-c2cccc(c2)-c2cccc(c2)-c2nc(co2)-c2nc1co2
melting temperature shift (human telomeric quadruplex d(TTAGGG)4; UV melting; 20 µM, pH 7.5, together with: 150 mM K+; reference: DNA without compound): 1.6 °C

C=C(C)C(=O)OCC(C)O (stereo not shown)
peptide depletion (cysteine peptide Ac-RFAACAA-COOH; DPRA RapidFire-MS/MS; 24 h, pH 7.5, together with: 5.0 µM cysteine peptide): inactive

C[C@@H](N)C(=O)N[C@H]1CO[C@H](O)[C@H](N)[C@H]1O
maximal ΔTm (pre-miR-21 RNA; differential scanning fluorimetry; reference: untreated, positive = stabilisation): 8.41 °C

Cc1ccccc1N=Nc1ccc(NC(=O)c2ccnn2C)c(C)c1
ZO-1 and occludin level (aryl hydrocarbon receptor; inhibitor, immunoblot; HT-29; 5 µM, together with: 12.5 µM GarD + 50 µM tBHP): decreased

c1cnc2c(c1)ccc1cccnc12
remaining activity (bovine lens protease; enzyme activity, inhibitor; 500 µM, 30 min preincubation, 37 °C): 8%

COc1cc2c3c4c1Oc1cc5c(cc1O4)[C@@H](Cc1ccc(O)c(c1)Oc1ccc(cc1)C[C@@H]3N(C)CC2)N(C)CC5
maximal ΔTm (pre-miR-21 RNA; differential scanning fluorimetry; reference: untreated, positive = stabilisation): 5.48 °C

N[C@@H](CCC(=O)Nc1ccc(F)cc1)C(=O)O
[3H]-L-glutamate uptake (glutamate transporters; PC-3; concentration not given, 5 min, 37 °C, together with: [3H]-L-glutamate 150 µM; reference: basal uptake): 101 ± 13%

CC(C)[C@@H]1NC(=O)c2coc(n2)-c2coc(n2)-c2coc(n2)[C@H](CCN(C)C)NC(=O)c2coc(n2)-c2coc(n2)-c2coc1n2
melting temperature shift (human telomeric quadruplex d(TTAGGG)4; UV melting; 20 µM, pH 7.5, together with: 50 mM K+; reference: DNA without compound): 37.4 °C

CN1C(=O)C=CC1=O
inhibition (bovine lens protease; enzyme activity, inhibitor; concentration not given, 30 min preincubation, 37 °C): ~88% and 88%

COc1cc2c3c(cc4ccccc4c3c1OC)N(C)CC2
maximal ΔTm (pre-miR-21 RNA; differential scanning fluorimetry; reference: untreated, positive = stabilisation): -15.7 °C

H-H[dW][dK]W[dF]K-NH2 (D-Trp, D-Lys, D-Phe, C-amide)
inhibition (CXCR4 (human); calcium mobilization, antagonist, Fura-2 fluorescence; primary human T cells; concentration not given, 20 min, together with: CXCL12 10 nM): 20 to 60%

CC(C)[C@@H]1NC(=O)c2coc(n2)-c2coc(n2)-c2coc(n2)C/C=C/c2coc(n2)-c2coc(n2)-c2coc1n2
melting temperature shift (human telomeric quadruplex d(TTAGGG)4; UV melting; 20 µM, pH 7.5, together with: 50 mM K+; reference: DNA without compound): 36.9 °C

O=C(O)c1cc(SSc2ccc([N+](=O)[O-])c(C(=O)O)c2)ccc1[N+](=O)[O-]
remaining activity (bovine lens protease; 0.2 mM, 37 °C): 1%

O=C1CNC(=O)c2coc(n2)-c2coc(n2)-c2cccc(c2)-c2cccc(c2)-c2nc(co2)-c2nc(co2)CN1
melting temperature shift (human telomeric quadruplex d(TTAGGG)4; UV melting; 20 µM, pH 7.5, together with: 150 mM K+; reference: DNA without compound): 4.2 °C

O=c1oc(Cl)c(Cl)c2ccccc12
remaining activity (bovine lens protease; enzyme activity, inhibitor; 500 µM, 30 min preincubation, 37 °C): 15%
